Results pooled from the literature.
Lines come from different studies, so protocols differ. Numbers after ± are the reported error.
Cell line: MDCK

Compound = CNc1ncnc2c1nnn2[C@@H]1C(F)=C(CO)[C@@H](O)[C@H]1O; test = MTT; conditions = 3 (unit not given); measurement = CC50; value = > 100 µM
Compound = Cc1ncc(OC[C@@]2(c3cccc(F)c3)C[C@H]2C(=O)Nc2ccc(F)cn2)c(C)n1; conditions = 1 µM, 90 min, pH 7.4 apical, 7.4 basolateral, apical to basolateral; measurement = mass recovery; value = 94 ± 8%
Compound = CCCc1nc(N)[nH]c(=O)c1Br; test = cell morphology alteration; measurement = minimum cytotoxic concentration; value = > 100 µM
Compound = Cn1cc(-c2cccc(N3CCn4c(cc5c4CC(C)(C)C5)C3=O)c2CO)cc(Nc2ccncn2)c1=O; conditions = 10 µM, 3 h; measurement = apparent permeability B-A; value = 17.9 ×10⁻⁶ cm/s
Compound = Nc1ccn([C@@H]2O[C@H](CO)[C@@H](O)C2(F)F)c(=O)n1; test = CCK-8; conditions = 100 µM, 24 h; measurement = viability; value = 95.78 ± 0.81%
Compound = Cc1cc(C)c(/C=C/c2nc(N)[nH]c(=O)c2Br)c(C)c1; test = cell morphology alteration; measurement = minimum cytotoxic concentration; value = > 20 µM
Compound = O=c1[nH]cc(F)c(=O)[nH]1; test = CCK-8; conditions = 100 µM, 24 h; measurement = viability; value = 92.3 ± 5.38%
Compound = O=c1[nH]cnc2c1nnn2[C@@H]1C(F)=C(CO)[C@@H](O)[C@H]1O; test = MTT; conditions = 3 (unit not given); measurement = CC50; value = > 100 µM
Compound = CC(C)C(=O)OC[C@H]1O[C@@H](n2ccc(NO)nc2=O)[C@H](O)[C@@H]1O; test = CCK-8; conditions = 100 µM, 24 h; measurement = viability; value = 93.32 ± 0.81%
Compound = Cn1cc(-c2cc(F)cc(N3CCn4c(cc5c4CCCC5)C3=O)c2CO)cc(Nc2ccc(N3CCN(C4COC4)CC3)cn2)c1=O; conditions = 10 µM, 3 h; measurement = apparent permeability B-A; value = 14.3 ×10⁻⁶ cm/s
Compound = NC12CC3CC(CC(C3)C1)C2; test = cell morphology alteration; measurement = minimum cytotoxic concentration; value = > 200 µM
Compound = Nc1ncnc2c1nnn2[C@@H]1C(F)=C(CO)[C@@H](O)[C@H]1O; test = MTT; conditions = 3 (unit not given); measurement = CC50; value = > 100 µM
Compound = Nc1nc(CCc2ccccc2)c(Br)c(=O)[nH]1; test = cell morphology alteration; measurement = minimum cytotoxic concentration; value = > 100 µM
Compound = Cn1cc(-c2cccc(N3CCc4c(cc5n4CCCC5)C3=O)c2CO)cc(Nc2ccncn2)c1=O; conditions = 10 µM, 3 h; measurement = apparent permeability B-A; value = 13.7 ×10⁻⁶ cm/s
Compound = CCCCc1nc(N)[nH]c(=O)c1Br; test = cell morphology alteration; measurement = minimum cytotoxic concentration; value = > 100 µM
Compound = Nc1nc(N)c2nnn([C@@H]3C(F)=C(CO)[C@@H](O)[C@H]3O)c2n1; test = MTT; conditions = 3 (unit not given); measurement = CC50; value = > 100 µM

Some of these lines once more:
Compound = Cc1cc(C)c(/C=C/c2nc(N)[nH]c(=O)c2Br)c(C)c1; test = cell morphology alteration; measurement = minimum cytotoxic concentration; value = > 20 µM
Compound = CC(C)C(=O)OC[C@H]1O[C@@H](n2ccc(NO)nc2=O)[C@H](O)[C@@H]1O; test = CCK-8; conditions = 100 µM, 24 h; measurement = viability; value = 93.32 ± 0.81%
